Assay results collected from several papers.
Parts stem from different laboratories: compare values within a part only. Substitutions count along the parent as printed.
UniProt P00747, sequence (whole entry, looked up): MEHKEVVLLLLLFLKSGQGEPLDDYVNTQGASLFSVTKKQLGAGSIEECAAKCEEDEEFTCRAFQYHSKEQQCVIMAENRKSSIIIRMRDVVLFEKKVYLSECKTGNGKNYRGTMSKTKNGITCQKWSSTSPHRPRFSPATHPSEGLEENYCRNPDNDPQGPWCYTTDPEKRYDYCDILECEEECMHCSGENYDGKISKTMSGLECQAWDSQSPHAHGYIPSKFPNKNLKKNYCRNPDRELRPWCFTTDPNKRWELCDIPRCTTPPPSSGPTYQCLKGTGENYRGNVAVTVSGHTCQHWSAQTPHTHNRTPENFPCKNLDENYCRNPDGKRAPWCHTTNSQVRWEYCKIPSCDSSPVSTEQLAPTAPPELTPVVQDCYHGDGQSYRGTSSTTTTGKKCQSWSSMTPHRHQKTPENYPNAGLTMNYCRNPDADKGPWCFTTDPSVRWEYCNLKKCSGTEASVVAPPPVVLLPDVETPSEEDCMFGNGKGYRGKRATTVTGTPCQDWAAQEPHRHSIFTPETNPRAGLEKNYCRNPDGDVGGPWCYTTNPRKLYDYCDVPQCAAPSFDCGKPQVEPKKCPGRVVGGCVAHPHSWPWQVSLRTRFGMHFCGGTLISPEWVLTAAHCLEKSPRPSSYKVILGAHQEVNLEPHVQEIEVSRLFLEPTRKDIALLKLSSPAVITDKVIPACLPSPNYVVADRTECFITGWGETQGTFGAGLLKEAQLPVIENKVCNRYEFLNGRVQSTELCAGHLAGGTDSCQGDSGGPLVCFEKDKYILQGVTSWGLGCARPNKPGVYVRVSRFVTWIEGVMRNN

Block 1
Target: CCND1, cyclin fold, Cln2 fusion (human)
Technique: yeast growth competition, sequencing
Medium: yeast
Notes: weak parent motif
Reference: not given
Direction: higher = stronger binding
Starting sequence: viral docking peptide; TSVRRALFTGGSD
Under “normalised enrichment score”, `G10R` is recorded as 0.74.
For `A6W`, “normalised enrichment score” read 0.353.
For `A6Q`, “normalised enrichment score” read 0.958.
`R5W` — result for “normalised enrichment score”: 0.346.
`S2F` — result for “normalised enrichment score”: 0.796.
`A6S` — result for “normalised enrichment score”: 0.0411.
For `T9M`, “normalised enrichment score” read 0.432.
For `V3L`, “normalised enrichment score” read 0.337.

Block 2
Target: HLA class I histocompatibility antigen, A alpha chain, allele A*80:01 (Homo sapiens, UniProt P04439)
Read-out: peptide-MHC binding
Form: peptide
Tested at: concentration not given
For `AEDLADHHV`, binding read “inactive”.
Under binding, `ATRSHRPLI` is recorded as “inactive”.
For `GTEELKSLY`, binding read “inactive”.
`WTDLFDNKV`: binding “inactive”.
`VLRACWNEK` — result for binding: “inactive”.
`APVESMALF`: binding “inactive”.
Under binding, `IRMWNQAAL` is recorded as “inactive”.
For `KSRQGDTKV`, binding read “inactive”.

Block 3
Target: UBE2D2 UBC core domain (UniProt P62837)
UniProt P62837, sequence (whole entry, looked up): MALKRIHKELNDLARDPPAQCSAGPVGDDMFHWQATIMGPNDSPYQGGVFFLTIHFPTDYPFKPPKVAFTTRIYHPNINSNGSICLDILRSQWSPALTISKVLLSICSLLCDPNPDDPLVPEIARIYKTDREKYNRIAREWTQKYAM
Technique: yeast two-hybrid
Medium: yeast
Notes: mostly zero background
Reference: not given
Direction: higher = stronger interaction
B1: TRIM10 RING domain (UniProt Q9UDY6); chain SVTSLADEVNCPICQGTLREPVTIDCGHNFCRACLTRYCEIPGPDLEESPTCPLCKEPFRPGSFRP
B2: MSL2 RING domain (UniProt Q9HCI7); chain LLPYFRQSLSCCVCGHLLQDPIAPTNSTCQHYVCKTCKGKKMMMKPSCSWCKDYEQFEENKQ
B3: RNF150 RING domain (UniProt Q9ULK6); chain DKETESDFDNCAVCIEGYKPNDVVRILPCRHLFHKSCVDPWLLDHRTCPMCKMNILKALGIP
B4: ANKIB1 RING domain (UniProt Q9P2G1); chain LSPGDLDTSLCDICMCSISVFEDPVDMPCGHDFCRGCWESFLNLKIQEGEAHNIFCPAYDCFQLVPVDIIE
B5: NSMCE1 RING domain (UniProt Q8WV22); chain RETYPDAVKICNICHSLLIQGQSCETCGIRMHLPCVAKYFQSNAEPRCPHCNDYWPHEIPKV
B6: RNF14 RING domain (UniProt Q9UBS8); chain IKCFNSKLFLCSICFCEKLGSECMYFLECRHVYCKACLKDYFEIQIRDGQVQCLNCPEPKCPSVATPGQVK
B7: PHF7 RING domain (UniProt Q9BWX1); chain IQHGHVGEESCILCCEDLSQQSVENIQSPCCSQAIYHRKCIQKYAHTSAKHFFKCPQCNNRKEFPQEML
For `B1 (TRIM10 RING domain)`, “lacZ reporter activity” read 0.
For `QLQDEEDDSLCRICMDAVIDCVLLECGHMVTCTKCGKRMSECPICRQYVVRAVHVF (RNF34 RING domain (UniProt Q969K3))`, “lacZ reporter activity” read 0.
`B2 (MSL2 RING domain)`: “lacZ reporter activity” 0.
`B3 (RNF150 RING domain)`: “lacZ reporter activity” 16100.
Under “lacZ reporter activity”, `B4 (ANKIB1 RING domain)` is recorded as 0.
`B5 (NSMCE1 RING domain)`: “lacZ reporter activity” 0.
`B6 (RNF14 RING domain)`: “lacZ reporter activity” 0.
Under “lacZ reporter activity”, `B7 (PHF7 RING domain)` is recorded as 0.

Further values, each from its own experiment
The IC50 of `CN(C)C(=O)COC(=O)Cc1ccc(OC(=O)c2ccc(NC(=N)N)cc2)cc1` is reported as 5.62 nM (Plasminogen (PLG, Homo sapiens, UniProt P00747)).

A few entries again (block 3):
`B5 (NSMCE1 RING domain)`: “lacZ reporter activity” 0.
`B6 (RNF14 RING domain)`: “lacZ reporter activity” 0.
